Published values of several laboratories.

| Molecule | test | system | conditions | endpoint | value |
| --- | --- | --- | --- | --- | --- |
| Cn1c(=O)c2[nH]cnc2n(C)c1=O |  | human, fasted baseline, cerebrospinal fluid |  | median concentration | 43.9 nM |
| Cn1c(-c2ccc(C(N)=O)cc2F)nnc1C(C)(C)Oc1c(F)cc(Cl)cc1F |  | young non-Japanese humans, plasma | oral, 2 mg once daily, last day of 14 days | median Cmax | 18.1 ng/mL |
| C[C@H](N)C(=O)N1C[C@H](CCCB(O)O)[C@](N)(C(=O)O)C1 |  | human patients, plasma | oral, 75 mg single dose, cycle 1 day 1 | median tmax | 2 h |
| COc1cc(CCC(=O)O)ccc1O[C@@H]1O[C@H](C(=O)O)[C@@H](O)[C@H](O)[C@H]1O |  | human, fasted baseline, cerebrospinal fluid |  | median concentration | 1.7 nM |
| CC(C)(O)CNc1nc(Nc2ccnc(C(F)(F)F)c2)nc(-c2cccc(C(F)(F)F)n2)n1 |  | human patients | oral, 100 mg once daily, cycle 1 days 14 and 21, added: induction chemotherapy | median Tmax | 4.18 h |
| O=c1c(O)c(-c2ccc(O)c(OS(=O)(=O)O)c2)oc2cc(O)cc(O)c12 |  | human, fasted baseline, cerebrospinal fluid |  | median concentration | 18.1 nM |
| CO[C@H]1C[C@@H]2CC[C@@H](C)[C@@](O)(O2)C(=O)C(=O)N2CCCC[C@H]2C(=O)O[C@H]([C@H](C)C[C@@H]2CC[C@@H](OC(=O)C(C)(CO)CO)[C@H](OC)C2)CC(=O)[C@H](C)/C=C(\C)[C@@H](O)[C@@H](OC)C(=O)[C@H](C)C[C@H](C)/C=C/C=C/C=C/1C |  | human, whole blood | intravenous, 35 mg/m2 weekly, cycle 5, added: valproic acid | median half-life | 12.9 h |
| CCN(CC)CCNC(=O)c1c(C)[nH]c(/C=C2\C(=O)Nc3ccc(F)cc32)c1C |  | human, plasma | oral, 15 mg/m2, day 28 | median trough plasma concentration | 22.5 ng/mL |
| Teicoplanin | HPLC-UV | human patients, serum ultrafiltrate | dose not given | median trough free concentration | 1.53 µg/mL |
| C=CC(=O)Nc1cc(Nc2nccc(-c3cn(C)c4ccccc34)n2)c(OC)cc1N(C)CCN(C)C | UHPLC-MS/MS | human, NSCLC patients, plasma | oral, 80 mg daily, steady state, at least 14 d treatment | median trough concentration | 205 ng/mL |
| O=C(O)c1cc(O)ccc1O |  | human, fasted baseline, cerebrospinal fluid |  | median concentration | 35.3 nM |
| CC[C@@H]1C(=O)N(C)c2cnc(Nc3ccc(C(=O)N[C@H]4CC[C@H](N5CCN(CC6CC6)CC5)CC4)cc3OC)nc2N1C(C)C |  | human, plasma | intravenous infusion, 350 mg over 2 h, first infusion | median Tmax | 1 h |
| N#Cc1ccnc(N2C(=O)CC[C@H]2C(=O)N(c2cncc(F)c2)[C@H](C(=O)NC2CC(F)(F)C2)c2ccccc2Cl)c1 |  | human patients | oral, single and multiple doses, added: induction and consolidation chemotherapy | median Tmax | ~4 h |

For quick reference, copied from above:
| Molecule | test | system | conditions | endpoint | value |
| --- | --- | --- | --- | --- | --- |
| CC(C)(O)CNc1nc(Nc2ccnc(C(F)(F)F)c2)nc(-c2cccc(C(F)(F)F)n2)n1 |  | human patients | oral, 100 mg once daily, cycle 1 days 14 and 21, added: induction chemotherapy | median Tmax | 4.18 h |
